Measurements pooled from the literature.
Parts stem from different laboratories: compare values within a part only. Positions count from the first letter of the parent shown.

Series 1 — technique: RNA Bind-n-Seq; form: RNA; matrix: in vitro; concentration: 365 nM; reference: no-protein control; reading: higher = stronger binding
Target: RNA binding protein fox-1 homolog 2, RRM domain, GST-SBP tag (RBFOX2, Homo sapiens, UniProt O43251-10, residues 100-194)
Notes: natural RNA segment, single round, ends assumed
Shared flanks, not repeated: GGGAGUUCUACAGUCCGACGAUC … UGGAAUUCUCGGGUGCCAA
Target sequence (chain): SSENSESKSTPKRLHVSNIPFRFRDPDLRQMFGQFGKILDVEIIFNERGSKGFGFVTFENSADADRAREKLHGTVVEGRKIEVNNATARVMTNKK
| Sequence | RBNS enrichment (R) |
| --- | --- |
| AUUAUCCUAUUUCAAGUUUAUGGUAAGUCACAGAUGUUCUCCCAGUAGCAGGACCUUGUGCUAACCACAAACUGCACCUUCUCAGUACUCACAACCCCGAUCUGCAAGGU | 0.425 |
| GUUGGCCUGUCACUUAAGUCAUUUCUCAACAAUGGCACUCACAAAGAGCUCCACAAUCAAGAUGGCAAAUGGAAACGUAAUCUGACUUCCUGGUGAAAAAUAAAAACCGG | 0.275 |
| GUGGCUGUCUCAGACACACCAGAAGAGGGCAUCAGAUCCCAUUACAGAUGGUUGUGAGCCACCAUGUGGUUGCUGGGAAUUGAACUCAGGACCUUUGGAUAAGAAACCAG | 0.353 |
| CCAUCUGGCUGUGCCAUCCUGCAUUUUUAGGAAUGGAAAGCAGGCCUCUGAGGCAGUGGACAGGAAGACUUCUCAUCCUUGAAUUCUAGCUCCCAUUCCAAACUGUUAGU | 0.721 |
| UCAUCACCCUCCUUGAGGUUACUGUGCAGUUUCAACCAGCAUUUUAUCCUAGUGAGGUCAUUAUCAGGAGUUGCCAUAUCAUCUCUCCAGUACCUAACAUUUCUCAUCCA | 0.379 |

Series 2 — target: CCNA1, cyclin fold, Cln2 fusion (human); technique: yeast growth competition, sequencing; matrix: yeast; notes: weak parent motif; reference: not given; reading: higher = stronger binding
Starting sequence: PKN2 docking peptide (human); VSAVQKLDFSDTM; partner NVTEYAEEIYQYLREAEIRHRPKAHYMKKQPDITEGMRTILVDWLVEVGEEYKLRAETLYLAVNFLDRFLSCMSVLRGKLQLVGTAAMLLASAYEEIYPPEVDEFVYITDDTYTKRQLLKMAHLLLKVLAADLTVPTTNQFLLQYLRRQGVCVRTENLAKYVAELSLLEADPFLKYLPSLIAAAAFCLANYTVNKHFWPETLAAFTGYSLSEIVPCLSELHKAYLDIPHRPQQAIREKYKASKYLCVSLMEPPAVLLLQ
| Variant | normalised enrichment score |
| --- | --- |
| VSANQKLDFSDTM [V4N] | 0.119 |
| VSAVQKLWFSDTM [D8W] | 0.371 |
| VSAVQKLDFSDTR [M13R] | 0.147 |
| VSKVQKLDFSDTM [A3K] | 0.0491 |

Single results of other studies
| Substance | tested on | assay | test system | conditions | scale | measurement | result |
| --- | --- | --- | --- | --- | --- | --- | --- |
| YWHAE (Homo sapiens, UniProt P62258) | YWHAZ (Homo sapiens, UniProt P63104) | cross-linking MS |  | hits only |  | interaction screen | cross-linked |
| PhoQ, residues 284 288 289 292 302 303 TLMATV | PhoP, residues 12 14 15 18 19 DLLYY (Escherichia coli, UniProt P23836) | Sort-seq, item: YFP reporter | E. coli | PhoQ-PhoP variant library, added: 10 µM Mg2+ | reference: high Mg2+ state, higher = stronger signaling | fold induction | 1.43 |

For quick reference, copied from above (series 2):
| Variant | normalised enrichment score |
| --- | --- |
| VSAVQKLDFSDTR [M13R] | 0.147 |
